Published values from different studies.
Numbered parts are unrelated; each lists some results of a single study.
UniProt Q14004, sequence (whole entry, looked up): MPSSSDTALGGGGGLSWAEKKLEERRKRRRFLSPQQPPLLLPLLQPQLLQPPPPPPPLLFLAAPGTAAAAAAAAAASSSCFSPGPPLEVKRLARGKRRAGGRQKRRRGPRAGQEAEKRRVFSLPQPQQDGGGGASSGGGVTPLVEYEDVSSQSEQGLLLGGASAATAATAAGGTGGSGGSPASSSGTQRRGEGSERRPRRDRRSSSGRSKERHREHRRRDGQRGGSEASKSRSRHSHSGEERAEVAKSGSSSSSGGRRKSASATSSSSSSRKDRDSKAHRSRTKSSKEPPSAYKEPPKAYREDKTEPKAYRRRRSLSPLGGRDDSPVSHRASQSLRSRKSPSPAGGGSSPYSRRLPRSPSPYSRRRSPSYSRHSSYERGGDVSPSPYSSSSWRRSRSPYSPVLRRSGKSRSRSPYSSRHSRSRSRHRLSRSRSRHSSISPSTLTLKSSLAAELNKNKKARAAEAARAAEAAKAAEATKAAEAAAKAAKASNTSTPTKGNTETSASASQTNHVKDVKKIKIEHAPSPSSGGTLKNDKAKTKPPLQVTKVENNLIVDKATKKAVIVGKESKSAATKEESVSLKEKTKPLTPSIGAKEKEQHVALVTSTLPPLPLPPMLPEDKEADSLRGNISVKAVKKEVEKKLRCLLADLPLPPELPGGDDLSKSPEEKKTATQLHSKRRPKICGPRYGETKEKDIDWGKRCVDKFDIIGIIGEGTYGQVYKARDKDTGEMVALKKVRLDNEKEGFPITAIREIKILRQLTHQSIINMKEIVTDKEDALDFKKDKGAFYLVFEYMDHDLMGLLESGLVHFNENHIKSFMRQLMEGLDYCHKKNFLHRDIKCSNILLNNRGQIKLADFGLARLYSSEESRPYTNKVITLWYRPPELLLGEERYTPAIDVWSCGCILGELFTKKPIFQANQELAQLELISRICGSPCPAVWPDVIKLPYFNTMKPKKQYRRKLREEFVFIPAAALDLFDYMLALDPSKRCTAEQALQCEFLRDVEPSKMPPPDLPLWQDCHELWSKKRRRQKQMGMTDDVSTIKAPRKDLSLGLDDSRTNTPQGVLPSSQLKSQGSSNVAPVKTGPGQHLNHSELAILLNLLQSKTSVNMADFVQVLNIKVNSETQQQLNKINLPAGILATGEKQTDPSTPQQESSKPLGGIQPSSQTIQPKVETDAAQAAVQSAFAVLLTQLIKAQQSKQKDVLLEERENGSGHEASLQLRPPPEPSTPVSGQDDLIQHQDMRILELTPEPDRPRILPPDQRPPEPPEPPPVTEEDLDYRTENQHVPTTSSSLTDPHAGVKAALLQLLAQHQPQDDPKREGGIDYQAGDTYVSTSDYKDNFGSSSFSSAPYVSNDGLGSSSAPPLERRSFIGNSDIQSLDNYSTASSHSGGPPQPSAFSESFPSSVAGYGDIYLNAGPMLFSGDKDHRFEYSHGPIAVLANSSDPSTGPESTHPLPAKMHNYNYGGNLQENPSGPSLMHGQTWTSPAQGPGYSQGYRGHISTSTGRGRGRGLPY
UniProt P00519, sequence (whole entry, unmodified, looked up): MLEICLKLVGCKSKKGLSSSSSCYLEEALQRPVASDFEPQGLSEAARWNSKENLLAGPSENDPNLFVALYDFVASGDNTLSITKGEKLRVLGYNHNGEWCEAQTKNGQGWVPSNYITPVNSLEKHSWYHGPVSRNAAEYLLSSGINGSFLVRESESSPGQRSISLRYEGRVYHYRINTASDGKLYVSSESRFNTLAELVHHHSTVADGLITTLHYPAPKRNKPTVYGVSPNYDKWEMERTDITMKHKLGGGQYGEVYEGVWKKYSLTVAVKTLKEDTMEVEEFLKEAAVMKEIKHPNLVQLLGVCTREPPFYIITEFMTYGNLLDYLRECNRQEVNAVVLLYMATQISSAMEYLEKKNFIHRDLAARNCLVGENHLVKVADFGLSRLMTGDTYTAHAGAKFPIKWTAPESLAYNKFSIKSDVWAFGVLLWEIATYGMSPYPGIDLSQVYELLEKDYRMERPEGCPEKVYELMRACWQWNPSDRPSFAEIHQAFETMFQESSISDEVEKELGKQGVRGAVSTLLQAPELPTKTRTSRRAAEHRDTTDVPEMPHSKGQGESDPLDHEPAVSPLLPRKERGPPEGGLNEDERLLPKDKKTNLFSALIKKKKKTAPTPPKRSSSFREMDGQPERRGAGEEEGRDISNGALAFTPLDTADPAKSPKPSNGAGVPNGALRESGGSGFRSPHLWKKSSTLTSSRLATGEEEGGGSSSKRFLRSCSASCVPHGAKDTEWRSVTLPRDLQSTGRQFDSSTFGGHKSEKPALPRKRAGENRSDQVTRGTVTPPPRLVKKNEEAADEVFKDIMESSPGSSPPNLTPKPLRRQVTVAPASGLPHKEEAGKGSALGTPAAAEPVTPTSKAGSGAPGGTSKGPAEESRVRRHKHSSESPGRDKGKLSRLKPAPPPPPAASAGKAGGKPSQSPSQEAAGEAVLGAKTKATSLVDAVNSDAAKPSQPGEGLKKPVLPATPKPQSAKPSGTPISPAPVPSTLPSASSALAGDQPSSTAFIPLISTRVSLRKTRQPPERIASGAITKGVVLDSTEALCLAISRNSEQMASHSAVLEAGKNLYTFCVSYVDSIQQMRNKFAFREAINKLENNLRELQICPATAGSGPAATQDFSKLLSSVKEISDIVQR
UniProt P42336, sequence (whole entry, unmodified, looked up): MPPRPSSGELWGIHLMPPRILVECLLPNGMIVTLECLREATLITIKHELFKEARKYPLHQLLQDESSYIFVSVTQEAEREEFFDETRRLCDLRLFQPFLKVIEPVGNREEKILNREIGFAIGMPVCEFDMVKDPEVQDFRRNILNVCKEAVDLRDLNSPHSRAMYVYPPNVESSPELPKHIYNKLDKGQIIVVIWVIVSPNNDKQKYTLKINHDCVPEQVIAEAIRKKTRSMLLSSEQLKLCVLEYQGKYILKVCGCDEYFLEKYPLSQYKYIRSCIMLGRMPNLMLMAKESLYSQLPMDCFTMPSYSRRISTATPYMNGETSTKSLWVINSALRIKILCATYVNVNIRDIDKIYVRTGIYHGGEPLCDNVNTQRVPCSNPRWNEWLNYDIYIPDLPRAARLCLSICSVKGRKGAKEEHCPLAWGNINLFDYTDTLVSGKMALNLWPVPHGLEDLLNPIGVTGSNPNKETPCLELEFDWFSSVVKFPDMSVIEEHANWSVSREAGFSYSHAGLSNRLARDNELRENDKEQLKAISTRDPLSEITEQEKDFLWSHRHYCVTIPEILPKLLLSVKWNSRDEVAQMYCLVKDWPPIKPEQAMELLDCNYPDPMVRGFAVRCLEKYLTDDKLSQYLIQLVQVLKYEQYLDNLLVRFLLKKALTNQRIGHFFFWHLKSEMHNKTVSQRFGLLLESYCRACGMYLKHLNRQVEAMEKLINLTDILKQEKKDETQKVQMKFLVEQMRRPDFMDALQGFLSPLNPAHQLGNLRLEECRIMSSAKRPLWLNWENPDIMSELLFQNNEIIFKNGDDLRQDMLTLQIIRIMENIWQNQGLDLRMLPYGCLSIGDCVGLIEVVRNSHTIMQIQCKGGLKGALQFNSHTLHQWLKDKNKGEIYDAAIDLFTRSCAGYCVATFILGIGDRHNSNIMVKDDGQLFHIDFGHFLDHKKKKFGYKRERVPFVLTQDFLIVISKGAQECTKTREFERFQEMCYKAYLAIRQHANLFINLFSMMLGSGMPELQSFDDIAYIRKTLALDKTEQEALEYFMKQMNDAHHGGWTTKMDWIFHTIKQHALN

Set 1
SMILES: Cc1c(NC(=O)c2cc(C(N)=O)nc3cc(F)ccc23)c(C(F)(F)F)nn1Cc1ccc(C(C)(C)C)cc1
Observed: cell-free assay
Method: competition with immobilised ligand
Concentration: 1 µM
It gave 100% for remaining binding (Cyclin-dependent kinase 13 (CDK13, Homo sapiens, UniProt Q14004)).
Phosphatidylinositol 4,5-bisphosphate 3-kinase catalytic subunit alpha isoform (PIK3CA, Homo sapiens, UniProt P42336, Q546K) — remaining binding: 32%.
For Tyrosine-protein kinase ABL1, non-phosphorylated (ABL1, Homo sapiens, UniProt P00519, F317L): remaining binding read 100%.

Set 2
Cell line: HaCaT
Concentration: 100 µM
Time: 36 h
The viability of `CC(C)C[C@H](NC(=O)CNC(=O)c1cc(Cl)ccc1Cl)B(O)O` is reported as 6.38%.
With `COc1cc2c(cc1O)CC[C@@H]1[C@@H]2CC[C@]2(C)[C@@H](O)CC[C@@H]12` the viability was 64.5%.
`OCCc1ccccc1` gave a viability of 79.5%.

Set 3
Target: Cyclin-dependent kinase 7 (CDK7, Homo sapiens, UniProt P50613)
UniProt P50613, sequence (whole entry, looked up): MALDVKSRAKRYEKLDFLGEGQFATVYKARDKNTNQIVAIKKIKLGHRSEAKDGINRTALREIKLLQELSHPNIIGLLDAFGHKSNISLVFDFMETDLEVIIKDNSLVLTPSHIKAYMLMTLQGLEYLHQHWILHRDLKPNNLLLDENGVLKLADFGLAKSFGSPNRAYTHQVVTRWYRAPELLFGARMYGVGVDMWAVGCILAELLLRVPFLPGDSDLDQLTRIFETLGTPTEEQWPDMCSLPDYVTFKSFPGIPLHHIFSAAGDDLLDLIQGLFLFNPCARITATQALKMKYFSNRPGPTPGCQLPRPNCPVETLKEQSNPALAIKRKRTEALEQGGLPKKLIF
Observed: enzyme activity
Mode: inhibitor
Concentration: 0.5 µM
Baseline: control
`c1ccc2c(-c3ccncc3)c[nH]c2c1` has a remaining activity of 97%.
With `COc1ccc2c(c1)c(C1=C(c3c[nH]c4ccccc34)C(=O)NC1=O)cn2CCCN(C)C` the remaining activity was 88%.
`O=Nc1c(-c2c(O)[nH]c3cc(Br)ccc23)[nH]c2ccccc12` gave a remaining activity of 79.1%.
For `O=C1Nc2ccccc2/C1=C\c1c(Cl)[nH]c2ccccc12`, the remaining activity was 99.7%.
`COc1cccc(-c2cc(=O)c3ccccc3o2)c1N` gave a remaining activity of 99.9%.
The remaining activity of `O=Nc1c(-c2c(O)[nH]c3ccccc23)[nH]c2ccccc12` is reported as 89.9%.
`COc1cc2c(N3CCN(C(=O)Nc4ccc(OC(C)C)cc4)CC3)ncnc2cc1OCCCN1CCCCC1` has a remaining activity of 109%.
`N#CC(c1ccnc(NCCc2cccnc2)n1)c1nc2ccccc2s1` (stereo not shown) has a remaining activity of 93.2%.
`CCCNC(=O)Nc1ccc(Oc2ncnc3cc(OC)c(OC)cc23)cc1Cl` has a remaining activity of 118%.
With `CC(C)N(CCC(=O)c1ccc2ccccc2c1)Cc1ccccc1` the remaining activity was 98%.
`O=C1Cc2c([nH]c3ccc(Br)cc23)-c2ccccc2N1` gave a remaining activity of 95.1%.
With `Clc1ccc(Nc2nnc(Cc3ccncc3)c3ccccc23)cc1` the remaining activity was 107%.
For `CN(C)S(=O)(=O)c1ccc2c(c1)/C(=C/c1cc3c([nH]1)CCCC3)C(=O)N2`, the remaining activity was 76.4%.
`CC(C)(C)c1nc2c3cc[nH]c(=O)c3c3cc(F)ccc3c2[nH]1` gave a remaining activity of 92.8%.
`O=C(c1ccccc1)c1ccc(N2CCOCC2)cc1O` gave a remaining activity of 106%.
For `O=C1Nc2ccc(Br)cc2/C1=C/c1cc2c([nH]1)CCCC2`, the remaining activity was 93.6%.
`NC(=O)c1cccc(-c2cc(Nc3ccc(OC(F)(F)F)cc3)ncn2)c1` gave a remaining activity of 104%.
For `N#C/C(=C(/N)SC1C=CC=CC1)c1cccc(C(O)c2ccncc2)c1` (stereo not shown), the remaining activity was 99.8%.
For `O=C1NC(=O)c2c1c1c3ccccc3[nH]c1c1[nH]c3cc(Br)ccc3c21`, the remaining activity was 93.1%.
`NC(=O)c1ccc(-c2nc(-c3ccc4c(c3)OCCO4)c(-c3ccccn3)[nH]2)cc1` has a remaining activity of 97.6%.

Set 4
Target: Hepatocyte nuclear factor 3-alpha (Foxa1, Mus musculus, UniProt P35582, residues 1-468, full length assumed)
Method: EMSA with sequencing
Molecule type: double-stranded DNA, one strand shown
Matrix: in vitro
Concentration: 10 and 20 nM
Notes: whole designed probe, mean of two concentrations, ends assumed
Baseline: negative control set to 0
Reading: higher = stronger binding
Shared flanks, not repeated: GTGAGCGGTGCCCATTGATGGGGAAC … TTTCACTGGGATCGTGGGGAC
Construct (chain): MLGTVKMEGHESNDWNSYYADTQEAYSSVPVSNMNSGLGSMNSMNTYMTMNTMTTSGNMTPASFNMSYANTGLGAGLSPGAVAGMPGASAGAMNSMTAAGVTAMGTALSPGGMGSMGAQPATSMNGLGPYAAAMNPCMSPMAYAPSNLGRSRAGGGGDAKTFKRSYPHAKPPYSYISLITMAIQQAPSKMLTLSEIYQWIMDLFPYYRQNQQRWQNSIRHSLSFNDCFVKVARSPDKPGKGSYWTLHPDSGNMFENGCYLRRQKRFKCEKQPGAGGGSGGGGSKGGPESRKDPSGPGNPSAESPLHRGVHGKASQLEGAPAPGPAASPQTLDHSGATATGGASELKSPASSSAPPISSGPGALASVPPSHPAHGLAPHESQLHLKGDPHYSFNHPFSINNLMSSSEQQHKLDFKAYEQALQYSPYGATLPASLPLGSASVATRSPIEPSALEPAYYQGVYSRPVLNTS
`AAAAAAGAAATACATTGAGTCTACTGACAAGATATCCACAACATGTTAAAAAGCCAAGTAGCAAAATATAGTATGCAATCTAATACTACGTAATGTAATCTTGCAGATGGTACCTATTTAAGTGTATTTATCTTTCCAAACACACCACATATGTTTATACATGTGTGTGAAAGGGTATACATACACTCAACAG`: “normalised bound fraction” 0.249 ratio.
`ATCTTCCCCCTCTTCCTTGCCCCACCAGCTCACCTACGGGGGTTATTTGCACAAAGGAAAATAAATAAAGCCGGCATTCGTTAACGCAGTTCTGGCGCAAACTGCTGTTTGCTCTGCATGAATCATGGTCCTTACGCGACGCCAGGCTCCGGGAGAGCAAAGCACCGTGTCAGGCGCATGATCCGGGCTCGCC` — result for “normalised bound fraction”: 0.389 ratio.
For `CAGTGCAGGTGACTAAGGATGACTAAGGACAGAGCAGGTGACTAAGGATGACTAAGGACTCTAAATATGTGAGTATAAAGGCTAGAAGGGGGTTGTTTACTGAAACTAGGGCAAGGAGGTGTAAAGAATGAGGAAGTTAAACTTTAAAATGGAGAACAAAGTATAAGAAAGCTGAACATACTGACATACTGGT`, “normalised bound fraction” read 0.0441 ratio.
For `TAATAACGGCAATTCAGCACCCTCTTTCAAAGTAATATCACTGCAAATGGATCAGATAATAAAATGGAGCACTATAGCAATTCTGTGCACAAAATAAATAAGAAACCTGAACGCCCTGACAATGGTTCTACAATGAACACCAGAAAATTCCAAGCTAAACCACTGGTTCAACCCACTTACTGGGTTAAAGAGA`, “normalised bound fraction” read 0.304 ratio.
`ATCTTCCCCCTCTTCCTTGCCCCACCAGCTCACCTTCCCGGGTTATTTGCACAAAGGAAAATAAATAAAGCCGGCATTCGTTAACCCTCTTCACGCGCATACTGCTGTTTGCTCTGCATGAATCATGGTCCTTACGCGAGGCGTGGCTCCGGGAGAGCAAAGCACCGTGTCAGGCGCATGATCCGGGCTCGCC`: “normalised bound fraction” 0.382 ratio.
`TGGCAAAGTTTTTGCCAGAATTCAGAATTCAATGTAACATATGCTTTGCAGTTTTTCTGTTACGCTGTGATCAATGTATTTATGTGTATATGTGTAATCTCATGTAATGTGTGTGTGCGCATATGTGTTGGAGTAATAATATTGTGCCATTCCTGGTATATGGAAAATGGCCTCCAATTTCCCCCCAAATTCT` — result for “normalised bound fraction”: 0.000666 ratio.
For `ATCTTCCCCCTCTTCCTTGCCCCACCAGCTCACCTTCCCGGGTTATTTGCAGATAGGAAAATAAATAAAGCCGGCATTCGTTAACCCTCTTCTGGCGCAAACTGCTGTTTGCTCTGCATCTAACATGGTCCTTACGCGAGGCGTGGCTCCGGGAGAGCAAAGCACCGTGTCAGGCGCATGATCCGGGGTGGCC`, “normalised bound fraction” read 0.355 ratio.
For `AGGCACAAGGTATGAATCACTAAGAATCTAGCAGCAGCTCTAGAAGCCTCCAAAGATAATTGCACTTCCCCAACAGGGGGACGGGGGTGGAGTGTAAATATGAAAGAACAGTGGATGGCCTAAATCAGTATGTGTCACTCTTTGTAAAGAGCCACAAGTGTTTGACTAGGGAAAAAGGAAAAGAGGCGAGAGT`, “normalised bound fraction” read 0.106 ratio.

Set 5
Host: human
Matrix: microsomes or S9
Concentration: 2 µM
Time: 0.5 h
For `CCC1(N2CCOCC2)CCN(C(=O)c2c[nH]c(=O)cc2OC)CC1`, the remaining compound was 80.8%.
With `CCN1CC(NC(=O)c2cc3n(n2)CCC3)CC1=O` (stereo not shown) the remaining compound was > 100%.
For `CCOC(=O)c1c(C)c(C(=O)NCCCN(C)C)c(C)n1CC`, the remaining compound was > 99%.
The remaining compound of `Cc1n[nH]cc1CNC(=O)c1ccc(Cn2c(=O)c3cccn3c3cccnc32)o1` is reported as 10.6%.

Set 6
SMILES: CC(C)n1cnc(-c2ccc(F)cc2)c1-c1ncc(C(=O)Nc2ccc(N3CCN(C)CC3)cc2)[nH]1
Method: Phase 2a trial
Host: human, idiopathic pulmonary fibrosis
measured: hepatic steatosis; 60 mg once daily, grade 2 — “patients with adverse event”: 0%.
measured: blood fibrinogen increased; all compound arms total, grade 3 — “patients with adverse event”: 0%.
It gave 0% for “patients with adverse event” (measured: hepatic steatosis; 60 mg once daily, grade 1).

Single results of other studies
The viability of `O=C1Nc2cc(Br)ccc2/C1=C1/Nc2ccccc2/C1=N\O` is reported as 64.4% (HuT78; CCK-8; 2 µM, 48 h; baseline: untreated).
With `CCN1CCN(Cc2ccc(NC(=O)Nc3ccc(Oc4cc(NC)ncn4)cc3)cc2C(F)(F)F)CC1` the IC50 was > 3000 nM (Proto-oncogene tyrosine-protein kinase Src (SRC, Homo sapiens, UniProt P12931)).

A few entries again (set 3):
With `CC(C)N(CCC(=O)c1ccc2ccccc2c1)Cc1ccccc1` the remaining activity was 98%.
`N#CC(c1ccnc(NCCc2cccnc2)n1)c1nc2ccccc2s1` (stereo not shown) has a remaining activity of 93.2%.
`c1ccc2c(-c3ccncc3)c[nH]c2c1` has a remaining activity of 97%.
With `Clc1ccc(Nc2nnc(Cc3ccncc3)c3ccccc23)cc1` the remaining activity was 107%.
For `N#C/C(=C(/N)SC1C=CC=CC1)c1cccc(C(O)c2ccncc2)c1` (stereo not shown), the remaining activity was 99.8%.
For `O=C1Nc2ccccc2/C1=C\c1c(Cl)[nH]c2ccccc12`, the remaining activity was 99.7%.
